# Assay results gathered from unrelated publications.
# A part holds a random share of what one study measured.
# Sequence of UniProt Q9H2X6 (whole entry, looked up): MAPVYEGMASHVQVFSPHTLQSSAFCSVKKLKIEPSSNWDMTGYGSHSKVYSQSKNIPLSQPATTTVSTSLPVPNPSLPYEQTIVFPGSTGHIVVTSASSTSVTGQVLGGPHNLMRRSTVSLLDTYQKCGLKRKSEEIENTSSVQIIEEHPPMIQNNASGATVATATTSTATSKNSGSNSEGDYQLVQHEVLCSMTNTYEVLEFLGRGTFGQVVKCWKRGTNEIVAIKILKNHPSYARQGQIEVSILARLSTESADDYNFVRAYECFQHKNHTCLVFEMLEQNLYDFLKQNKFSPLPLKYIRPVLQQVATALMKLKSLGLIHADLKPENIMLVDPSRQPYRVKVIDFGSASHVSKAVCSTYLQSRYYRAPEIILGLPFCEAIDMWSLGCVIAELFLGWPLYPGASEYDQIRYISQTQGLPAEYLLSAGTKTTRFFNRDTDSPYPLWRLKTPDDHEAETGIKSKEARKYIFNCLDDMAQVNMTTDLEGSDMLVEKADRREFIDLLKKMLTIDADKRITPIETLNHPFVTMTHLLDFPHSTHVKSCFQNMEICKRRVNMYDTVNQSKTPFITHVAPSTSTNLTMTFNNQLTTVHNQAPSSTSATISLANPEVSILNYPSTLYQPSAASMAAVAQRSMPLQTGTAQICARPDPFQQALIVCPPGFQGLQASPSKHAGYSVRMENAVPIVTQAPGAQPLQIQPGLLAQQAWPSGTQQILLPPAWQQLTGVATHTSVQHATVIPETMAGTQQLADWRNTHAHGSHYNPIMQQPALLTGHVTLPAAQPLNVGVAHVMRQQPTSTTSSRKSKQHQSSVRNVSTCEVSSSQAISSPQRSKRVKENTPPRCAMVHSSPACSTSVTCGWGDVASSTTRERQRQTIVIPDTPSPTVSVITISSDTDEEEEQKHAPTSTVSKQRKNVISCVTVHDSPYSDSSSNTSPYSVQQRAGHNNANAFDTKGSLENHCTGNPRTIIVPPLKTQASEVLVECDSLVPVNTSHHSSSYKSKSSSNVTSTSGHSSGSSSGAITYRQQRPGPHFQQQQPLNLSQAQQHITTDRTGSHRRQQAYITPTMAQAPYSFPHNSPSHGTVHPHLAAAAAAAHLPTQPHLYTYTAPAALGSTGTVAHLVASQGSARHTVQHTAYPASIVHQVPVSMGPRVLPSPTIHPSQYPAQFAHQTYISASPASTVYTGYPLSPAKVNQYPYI
# Sequence of UniProt P06493 (whole entry, looked up): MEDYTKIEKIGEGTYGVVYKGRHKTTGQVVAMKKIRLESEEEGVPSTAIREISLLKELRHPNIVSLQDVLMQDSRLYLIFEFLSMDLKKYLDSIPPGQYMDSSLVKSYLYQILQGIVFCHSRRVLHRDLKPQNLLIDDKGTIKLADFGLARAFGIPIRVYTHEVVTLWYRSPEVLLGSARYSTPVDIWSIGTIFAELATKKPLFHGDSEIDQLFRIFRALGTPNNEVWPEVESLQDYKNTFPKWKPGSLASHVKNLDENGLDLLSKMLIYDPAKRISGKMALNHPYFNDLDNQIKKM
# Sequence of UniProt P54762 (whole entry, looked up): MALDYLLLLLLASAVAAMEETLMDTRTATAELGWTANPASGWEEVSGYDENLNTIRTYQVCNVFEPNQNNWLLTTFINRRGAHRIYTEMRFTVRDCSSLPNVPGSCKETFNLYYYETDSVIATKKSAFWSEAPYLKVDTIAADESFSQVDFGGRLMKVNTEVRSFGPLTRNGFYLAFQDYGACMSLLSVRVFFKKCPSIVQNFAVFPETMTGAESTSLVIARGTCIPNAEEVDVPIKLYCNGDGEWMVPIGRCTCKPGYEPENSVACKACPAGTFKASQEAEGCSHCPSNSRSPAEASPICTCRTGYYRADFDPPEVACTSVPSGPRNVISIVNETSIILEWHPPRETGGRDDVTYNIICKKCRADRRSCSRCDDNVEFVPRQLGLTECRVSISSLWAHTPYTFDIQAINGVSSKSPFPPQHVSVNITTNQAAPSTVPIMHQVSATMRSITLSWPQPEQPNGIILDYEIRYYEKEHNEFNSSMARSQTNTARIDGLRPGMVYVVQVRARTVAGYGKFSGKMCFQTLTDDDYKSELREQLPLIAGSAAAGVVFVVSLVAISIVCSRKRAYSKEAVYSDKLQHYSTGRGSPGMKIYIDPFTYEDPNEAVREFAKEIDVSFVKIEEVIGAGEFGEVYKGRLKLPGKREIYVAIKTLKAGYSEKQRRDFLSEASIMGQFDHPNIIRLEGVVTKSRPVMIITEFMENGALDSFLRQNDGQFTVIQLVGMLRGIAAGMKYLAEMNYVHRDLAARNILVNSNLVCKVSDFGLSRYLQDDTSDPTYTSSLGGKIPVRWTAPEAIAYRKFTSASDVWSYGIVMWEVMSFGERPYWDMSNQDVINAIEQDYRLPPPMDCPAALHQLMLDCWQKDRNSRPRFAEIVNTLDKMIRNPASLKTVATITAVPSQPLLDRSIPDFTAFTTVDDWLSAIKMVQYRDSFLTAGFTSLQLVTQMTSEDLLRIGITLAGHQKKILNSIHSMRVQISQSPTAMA
# Sequence of UniProt O75582 (whole entry, looked up): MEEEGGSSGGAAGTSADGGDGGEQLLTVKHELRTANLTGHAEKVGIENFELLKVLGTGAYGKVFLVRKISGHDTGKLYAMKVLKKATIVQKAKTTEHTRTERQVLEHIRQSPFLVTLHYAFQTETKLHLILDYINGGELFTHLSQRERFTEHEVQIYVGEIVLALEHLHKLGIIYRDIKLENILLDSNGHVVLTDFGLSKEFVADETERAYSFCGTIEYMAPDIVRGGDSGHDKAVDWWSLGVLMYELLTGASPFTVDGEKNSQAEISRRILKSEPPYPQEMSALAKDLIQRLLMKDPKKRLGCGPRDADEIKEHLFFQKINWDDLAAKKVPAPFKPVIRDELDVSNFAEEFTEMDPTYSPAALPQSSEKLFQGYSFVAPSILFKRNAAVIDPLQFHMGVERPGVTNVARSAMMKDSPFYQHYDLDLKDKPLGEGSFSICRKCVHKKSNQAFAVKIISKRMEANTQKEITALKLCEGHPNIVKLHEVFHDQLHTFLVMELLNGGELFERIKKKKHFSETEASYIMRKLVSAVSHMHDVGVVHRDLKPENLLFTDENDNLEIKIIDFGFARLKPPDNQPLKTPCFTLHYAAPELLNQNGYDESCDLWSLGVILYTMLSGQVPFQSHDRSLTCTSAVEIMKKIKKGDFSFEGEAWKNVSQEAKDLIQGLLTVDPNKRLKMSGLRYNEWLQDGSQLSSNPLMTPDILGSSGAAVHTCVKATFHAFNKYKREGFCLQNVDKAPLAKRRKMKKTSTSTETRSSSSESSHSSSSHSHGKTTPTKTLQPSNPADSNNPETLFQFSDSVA
# Sequence of UniProt P00519 (whole entry, unmodified, looked up): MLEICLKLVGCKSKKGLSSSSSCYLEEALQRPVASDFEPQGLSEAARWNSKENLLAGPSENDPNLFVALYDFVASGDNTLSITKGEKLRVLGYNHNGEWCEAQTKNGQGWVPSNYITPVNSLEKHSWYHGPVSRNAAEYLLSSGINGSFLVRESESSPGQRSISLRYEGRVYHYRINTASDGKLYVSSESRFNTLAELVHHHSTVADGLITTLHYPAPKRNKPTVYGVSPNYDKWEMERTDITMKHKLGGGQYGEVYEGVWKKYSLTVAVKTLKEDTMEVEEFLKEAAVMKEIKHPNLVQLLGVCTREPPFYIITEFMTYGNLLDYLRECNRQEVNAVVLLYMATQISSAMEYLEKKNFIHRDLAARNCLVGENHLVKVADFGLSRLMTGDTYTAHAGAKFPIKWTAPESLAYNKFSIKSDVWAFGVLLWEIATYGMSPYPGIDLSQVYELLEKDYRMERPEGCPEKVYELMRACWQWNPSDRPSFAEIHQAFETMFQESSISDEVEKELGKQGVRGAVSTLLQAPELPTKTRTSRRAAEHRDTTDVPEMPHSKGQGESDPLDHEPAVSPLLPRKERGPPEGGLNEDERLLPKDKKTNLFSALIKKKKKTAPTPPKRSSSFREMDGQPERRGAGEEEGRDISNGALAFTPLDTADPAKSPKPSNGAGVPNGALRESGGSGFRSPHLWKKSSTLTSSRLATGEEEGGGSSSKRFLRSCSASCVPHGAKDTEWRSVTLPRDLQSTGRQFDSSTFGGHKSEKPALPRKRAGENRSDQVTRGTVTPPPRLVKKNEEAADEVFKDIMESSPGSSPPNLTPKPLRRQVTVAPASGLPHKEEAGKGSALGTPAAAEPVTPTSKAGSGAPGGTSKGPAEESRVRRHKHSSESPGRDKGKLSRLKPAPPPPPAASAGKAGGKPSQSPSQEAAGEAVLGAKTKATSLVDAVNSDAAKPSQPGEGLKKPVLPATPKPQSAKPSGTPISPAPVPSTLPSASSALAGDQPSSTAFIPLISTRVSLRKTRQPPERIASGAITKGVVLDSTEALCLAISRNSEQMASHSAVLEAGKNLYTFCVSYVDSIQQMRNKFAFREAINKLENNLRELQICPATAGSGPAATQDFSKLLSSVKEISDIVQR
# Sequence of UniProt Q16644 (whole entry, looked up): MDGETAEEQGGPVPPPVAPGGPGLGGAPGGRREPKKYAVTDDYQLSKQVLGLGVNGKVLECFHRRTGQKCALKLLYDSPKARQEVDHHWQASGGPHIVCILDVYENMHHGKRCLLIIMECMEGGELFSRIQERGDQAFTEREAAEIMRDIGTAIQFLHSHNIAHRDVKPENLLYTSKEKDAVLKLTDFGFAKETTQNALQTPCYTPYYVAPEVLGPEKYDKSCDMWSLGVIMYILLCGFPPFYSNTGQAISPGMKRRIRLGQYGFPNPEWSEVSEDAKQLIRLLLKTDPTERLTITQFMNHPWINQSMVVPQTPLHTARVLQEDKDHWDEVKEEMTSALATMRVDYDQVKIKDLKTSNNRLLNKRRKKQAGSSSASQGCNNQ

# Series 1 — technique: protein-binding microarray; form: double-stranded DNA, one strand shown; medium: in vitro; concentration: 940 nM top; setting: 60-bp whole probe; with: salmon DNA 0.4 mg/ml; baseline: random background probes; direction: higher = stronger binding; constant ends, left off below: GCCTAGCAC … GTCTTGATTCGCTTGACGCTGCTG
# Target: Interferon regulatory factor 5, full length, phosphomimetic (IRF5, Homo sapiens, UniProt Q13568-2, residues 1-514, S451D/S453D/S456D/S462D)
Sequence,fitted relative affinity [z-score]
TCAAGCTTCCATTTTCTACTGTGCTAG,0.807
TTAGGACTGGACTTTCGATTAGTGCTA,2.16
TCAGGACTGCTTCTCCTTTAGTGCTAG,-0.0379
GACGGACTGGAATTTCGGGACGTGCTA,-0.352
TTAGATATCGGTATCGATTAGTGCTAG,5.06
GTCGGTATCCTTTTCCTGACGTGCTAG,2.02
TTAGGTTTCCCTCTCCTTTAGTGCTAG,2.46
GGCGGACTGGGTTTCGGGACGTGCTAG,2.97

# Series 2 — technique: competition protein-binding microarray; form: double-stranded DNA, one strand shown; medium: in vitro; concentration: 2 µM; with: Cbf1 competitor, 0.05 µM; direction: higher = stronger binding; constant ends, left off below: … GTCTTGATTCGCTTGACGCTGCTG
# Target: Phosphate system positive regulatory protein PHO4, full length, GST-tagged (PHO4, Saccharomyces cerevisiae, UniProt P07270, residues 1-312)
# Setting: whole 60-bp probe, lowest competitor level
# Construct (chain): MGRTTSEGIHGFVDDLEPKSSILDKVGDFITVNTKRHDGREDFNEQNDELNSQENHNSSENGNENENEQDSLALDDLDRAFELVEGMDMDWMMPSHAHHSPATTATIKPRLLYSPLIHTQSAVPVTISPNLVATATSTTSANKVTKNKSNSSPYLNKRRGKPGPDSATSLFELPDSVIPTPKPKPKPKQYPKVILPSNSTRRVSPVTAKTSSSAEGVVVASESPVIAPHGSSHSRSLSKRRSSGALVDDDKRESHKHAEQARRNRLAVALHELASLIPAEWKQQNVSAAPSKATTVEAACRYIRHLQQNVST
Sequence,fluorescence intensity
CACCCAAGCGTTAGGCACGTGTGGGCCGGAGTTTAC,16200 a.u.
CATTTATATTAAAATAATACCTACTGTTTCATACTT,3680 a.u.
CATACCCAACCTTGGAAAGTGGGTGAAGATATTTGT,3580 a.u.
CCTTCCGCCAAGGAGCACATGCGGCCCACTAAAACT,11500 a.u.
TTGTTCCGCGGAAAGCACGTGAGCCTAATCCACTCG,16600 a.u.
AAATTACTAAGTTGCGTTGTGGGTGACGCCGTATGA,4410 a.u.
GCAAGGAAGATGAAACACGATGTCGTTGTGATGAGG,9930 a.u.
CTAACGAAGGTTTGTCACGGGACTTACAAGCCAAGT,6440 a.u.

# Series 3 — SMILES: c1ccc(-c2n[nH]c3c2oc2ccccc23)cc1; observed: enzyme activity; action: inhibitor; concentration: 0.5 µM; baseline: control
target,remaining activity [%]
"Mitogen-activated protein kinase kinase kinase kinase 4 (MAP4K4, Homo sapiens, UniProt O95819)",36.1
"Serine/threonine-protein kinase WNK3 (WNK3, Homo sapiens, UniProt Q9BYP7)",91.5
"Testis-specific serine/threonine-protein kinase 2 (TSSK2, Homo sapiens, UniProt Q96PF2)",97.6
"Tyrosine-protein kinase Srms (SRMS, Homo sapiens, UniProt Q9H3Y6)",99.5
"Homeodomain-interacting protein kinase 2 (HIPK2, Homo sapiens, UniProt Q9H2X6)",99.6
"Ephrin type-B receptor 4 (EPHB4, Homo sapiens, UniProt P54760)",112
"Homeodomain-interacting protein kinase 4 (HIPK4, Homo sapiens, UniProt Q8NE63)",103
"Ribosomal protein S6 kinase alpha-5 (RPS6KA5, Homo sapiens, UniProt O75582)",94.9
"Phosphorylase b kinase gamma catalytic chain, skeletal muscle/heart isoform (PHKG1, Homo sapiens, UniProt Q16816)",91.5
"Tyrosine-protein kinase Blk (BLK, Homo sapiens, UniProt P51451)",88.9
"Serine/threonine-protein kinase 16 (STK16, Homo sapiens, UniProt O75716)",89.1
"Cyclin-dependent kinase 1, with cyclin B (CDK1, Homo sapiens, UniProt P06493)",87.7
"Ephrin type-B receptor 1 (EPHB1, Homo sapiens, UniProt P54762)",103
"MAP kinase-activated protein kinase 3 (MAPKAPK3, Homo sapiens, UniProt Q16644)",100
"Cyclin-dependent kinase 6, with cyclin D3 (CDK6, Homo sapiens, UniProt Q00534)",91.6
"Ribosomal protein S6 kinase alpha-6 (RPS6KA6, Homo sapiens, UniProt Q9UK32)",107
"Tyrosine-protein kinase receptor UFO (AXL, Homo sapiens, UniProt P30530)",101

# Further values, each from its own experiment
SMILES,target,observed,technique,concentration,quantity,result
Cn1cncc1[C@](O)(COc1ccc(C#N)cc1-c1ccc(OC(F)(F)F)cc1)c1ccc(C#N)cc1,"Tyrosine-protein kinase ABL1, phosphorylated (ABL1, Homo sapiens, UniProt P00519, E255K)",binding,competition with immobilised ligand,1 µM,remaining binding,94%

# For quick reference, copied from above (series 1):
Sequence,fitted relative affinity [z-score]
TCAGGACTGCTTCTCCTTTAGTGCTAG,-0.0379
TTAGGACTGGACTTTCGATTAGTGCTA,2.16
GGCGGACTGGGTTTCGGGACGTGCTAG,2.97
TTAGATATCGGTATCGATTAGTGCTAG,5.06
GTCGGTATCCTTTTCCTGACGTGCTAG,2.02
